Earlier results as cited in several papers.
Numbered parts are unrelated; values within a part may stem from several laboratories. Numbers after ± are the reported error.

Block 1
Target: HLA class I histocompatibility antigen, B alpha chain, allele B*08:02 (Homo sapiens, UniProt P01889)
Observed: peptide-MHC binding
Form: peptide
| Sequence | IC50 [µM] |
| --- | --- |
| WAKRRPATF | 0.029 |
| YARRYFYPL | 0.043 |
| SMKTRTAWF | 0.03 |

Other studies, line by line
| SMILES | tested on | test | test system | conditions | measurement | result |
| --- | --- | --- | --- | --- | --- | --- |
| CN1CC[C@H](c2c(O)cc(O)c3c(=O)cc(-c4ccccc4Cl)oc23)[C@H](O)C1 | HIV-1 | viral replication |  |  | EC50 | < 0.01 µM |
| C=C[C@@H]1C[C@]1(NC(=O)[C@@H]1C[C@@H]2CN1C(=O)[C@H](C(C)(C)C)NC(=O)O[C@@H]1C[C@H]1CCCCCc1nc3ccc(OC)cc3nc1O2)C(=O)NS(=O)(=O)C1CC1 |  |  | human, HCV genotype 1 patients, plasma | oral, 100 mg once daily, steady state, mean | Cmax | 0.15 µM |
| CC(O)CN1CCN(CC(=O)[O-])CCN(CC(=O)[O-])CCN(CC(=O)[O-])CC1.[Gd+3] (centres unmarked) |  |  |  | 0.1 mmol/kg | half-life | 1.57 ± 0.08 h |
| C#CCOc1ccc(-c2nc3cc(NC(=O)[C@H](N)Cc4ccccc4)ccc3o2)cc1 |  |  | mouse, plasma |  | unbound fraction | < 0.4% |
| CCCSc1ccc2nc(NC(=O)OC)[nH]c2c1 |  |  |  |  | pKa | 4.27 |

For quick reference, copied from above (block 1):
| Sequence | IC50 [µM] |
| --- | --- |
| YARRYFYPL | 0.043 |
